# Assay results from different studies.
# Each numbered part is a random draw from the data of one study; scales do not carry over between parts. Changes are numbered by the printed parent chain.

# Study 1
# Target: ABI1, truncated, D143A, DHFR fusion (Arabidopsis thaliana)
# Technique: DHFR PCA, deep sequencing
# Medium: yeast
# Setting: methotrexate growth selection, single substitutions
# Added: (+)-ABA 2500 µM
# Reference: wild-type fitted maximum
# Direction: higher = stronger binding
# Parent: PYL1, truncated, DHFR fusion (Arabidopsis thaliana); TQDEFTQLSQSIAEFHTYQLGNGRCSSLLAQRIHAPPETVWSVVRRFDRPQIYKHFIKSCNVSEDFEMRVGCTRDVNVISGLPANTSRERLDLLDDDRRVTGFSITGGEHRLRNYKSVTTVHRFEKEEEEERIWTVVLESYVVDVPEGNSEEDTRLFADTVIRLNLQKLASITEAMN
Substitution,relative binding score [%]
C72A,95.5
E109L,96.8
T106D,99
R88S,99

# Study 2
# Target: CCNA1, cyclin fold, Cln2 fusion (human)
# Technique: yeast growth competition, sequencing
# Medium: yeast
# Setting: weak parent motif
# Reference: not given
# Direction: higher = stronger binding
# Parent: PKN2 docking peptide (human); VSAVQKLDFSDTM
Substitution,normalised enrichment score
VSAVQKLDFSCTM [D11C],0.334
VSAVQKLDYSDTM [F9Y],0.51
HSAVQKLDFSDTM [V1H],0.14
VSAVQKLDFSDTH [M13H],0.106
VSAVQKLDISDTM [F9I],0.187
VSAVQKLDFNDTM [S10N],0.0404
VSIVQKLDFSDTM [A3I],0.163

# Other studies, line by line
Molecule,tested on,test,system,conditions,scale,quantity,result
"SEC61B (Homo sapiens, UniProt P60468)","SEC61A1 (Homo sapiens, UniProt P61619)",cross-linking MS,,hits only,,interaction screen,cross-linked
"PhoQ, residues 284 288 289 292 302 303 SQSLSM","PhoP, residues 12 14 15 18 19 IQSYL (Escherichia coli, UniProt P23836)","Sort-seq, item: YFP reporter",E. coli,"PhoQ-PhoP variant library, added: 10 µM Mg2+","reference: high Mg2+ state, higher = stronger signaling",fold induction,10.5
"TRIP12 (Homo sapiens, UniProt Q14669)","IMMT (Homo sapiens, UniProt Q16891)",cross-linking MS,cell fractions,added: DSSO,,cross-linked residues,Y918 to K211
"MTREX (Homo sapiens, UniProt P42285)","NOP53 (Homo sapiens, UniProt Q9NZM5)",cross-linking MS,cell fractions,added: DSSO,,cross-linked residues,K748 to K127
"NAA10 (Homo sapiens, UniProt P41227)","NAA15 (Homo sapiens, UniProt Q9BXJ9)",cross-linking MS,cell fractions,added: DSSO,,cross-linked residues,K165 to K286

# For quick reference, copied from above (study 2):
Substitution,normalised enrichment score
VSAVQKLDFSDTH [M13H],0.106
